Measurements from different studies.
Protocols differ between the studies behind these lines. Numbers after ± are the reported error.
ESR1: Estrogen receptor (ESR1, Homo sapiens, UniProt P03372)

Amino acid sequences for entries named in this document (tags omitted). Residues count along the entry.
UniProt A0A381MCS3, 1-451: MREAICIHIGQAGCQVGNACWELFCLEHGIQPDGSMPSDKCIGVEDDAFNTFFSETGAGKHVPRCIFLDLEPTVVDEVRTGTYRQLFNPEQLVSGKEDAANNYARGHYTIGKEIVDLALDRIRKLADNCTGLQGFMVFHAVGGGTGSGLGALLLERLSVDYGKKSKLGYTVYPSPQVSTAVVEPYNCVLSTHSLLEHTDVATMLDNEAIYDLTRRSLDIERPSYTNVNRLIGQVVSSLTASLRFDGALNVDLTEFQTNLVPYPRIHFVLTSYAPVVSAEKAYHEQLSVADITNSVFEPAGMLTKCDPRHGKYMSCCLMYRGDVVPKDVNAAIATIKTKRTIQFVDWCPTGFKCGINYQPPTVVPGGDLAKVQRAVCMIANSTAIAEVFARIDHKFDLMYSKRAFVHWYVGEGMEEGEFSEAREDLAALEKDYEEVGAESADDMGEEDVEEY
UniProt A4HTR0, 1-443: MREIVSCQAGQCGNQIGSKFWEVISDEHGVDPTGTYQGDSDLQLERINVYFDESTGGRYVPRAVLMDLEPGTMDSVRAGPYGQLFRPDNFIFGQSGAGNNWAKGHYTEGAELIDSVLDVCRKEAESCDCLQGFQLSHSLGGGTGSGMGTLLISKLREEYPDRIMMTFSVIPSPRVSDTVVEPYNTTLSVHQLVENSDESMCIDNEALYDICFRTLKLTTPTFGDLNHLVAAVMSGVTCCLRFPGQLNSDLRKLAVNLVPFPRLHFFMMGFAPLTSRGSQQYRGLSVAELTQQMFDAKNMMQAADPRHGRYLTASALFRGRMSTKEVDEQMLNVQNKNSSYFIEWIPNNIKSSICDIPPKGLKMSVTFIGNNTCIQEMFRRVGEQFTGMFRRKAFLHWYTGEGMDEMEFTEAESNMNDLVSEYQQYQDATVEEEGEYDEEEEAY
UniProt P10747, whole entry, looked up: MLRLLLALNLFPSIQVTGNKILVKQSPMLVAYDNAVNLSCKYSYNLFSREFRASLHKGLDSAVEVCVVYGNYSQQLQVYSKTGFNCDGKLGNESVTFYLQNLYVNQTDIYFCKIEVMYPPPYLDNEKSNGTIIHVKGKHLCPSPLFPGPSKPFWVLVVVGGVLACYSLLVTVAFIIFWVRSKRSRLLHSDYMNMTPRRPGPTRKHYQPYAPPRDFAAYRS
UniProt P31424, 21-1203 limits assumed: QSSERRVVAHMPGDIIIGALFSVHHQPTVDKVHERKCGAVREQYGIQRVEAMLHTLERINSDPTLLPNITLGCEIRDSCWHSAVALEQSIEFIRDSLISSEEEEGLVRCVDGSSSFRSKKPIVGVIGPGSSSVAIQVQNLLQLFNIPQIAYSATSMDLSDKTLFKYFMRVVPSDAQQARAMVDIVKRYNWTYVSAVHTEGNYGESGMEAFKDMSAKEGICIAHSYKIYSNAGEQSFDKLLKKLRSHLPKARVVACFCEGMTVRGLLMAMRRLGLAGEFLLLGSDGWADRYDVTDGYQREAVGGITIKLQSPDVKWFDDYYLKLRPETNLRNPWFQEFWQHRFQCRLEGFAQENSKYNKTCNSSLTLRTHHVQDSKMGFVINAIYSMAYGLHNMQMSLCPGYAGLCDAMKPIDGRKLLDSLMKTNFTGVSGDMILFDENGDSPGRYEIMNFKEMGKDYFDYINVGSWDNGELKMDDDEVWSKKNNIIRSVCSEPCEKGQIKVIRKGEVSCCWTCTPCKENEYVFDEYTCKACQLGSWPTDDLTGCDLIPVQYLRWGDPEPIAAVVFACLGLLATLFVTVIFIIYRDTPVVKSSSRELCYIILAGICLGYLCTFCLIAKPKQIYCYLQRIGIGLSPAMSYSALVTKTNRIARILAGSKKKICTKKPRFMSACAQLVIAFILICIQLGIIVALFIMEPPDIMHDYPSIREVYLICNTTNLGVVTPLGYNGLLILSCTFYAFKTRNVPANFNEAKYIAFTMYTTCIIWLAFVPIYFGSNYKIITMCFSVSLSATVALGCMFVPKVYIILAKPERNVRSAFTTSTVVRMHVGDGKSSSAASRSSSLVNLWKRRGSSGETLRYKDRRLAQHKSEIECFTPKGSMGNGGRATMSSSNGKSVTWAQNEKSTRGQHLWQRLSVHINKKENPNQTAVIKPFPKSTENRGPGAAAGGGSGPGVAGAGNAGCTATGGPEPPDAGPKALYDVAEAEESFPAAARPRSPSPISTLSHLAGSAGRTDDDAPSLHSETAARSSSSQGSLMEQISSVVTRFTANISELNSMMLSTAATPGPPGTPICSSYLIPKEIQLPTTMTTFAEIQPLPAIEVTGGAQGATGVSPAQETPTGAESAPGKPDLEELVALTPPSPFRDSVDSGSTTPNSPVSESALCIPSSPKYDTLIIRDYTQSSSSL
UniProt Q00959, 23-1464 limits assumed: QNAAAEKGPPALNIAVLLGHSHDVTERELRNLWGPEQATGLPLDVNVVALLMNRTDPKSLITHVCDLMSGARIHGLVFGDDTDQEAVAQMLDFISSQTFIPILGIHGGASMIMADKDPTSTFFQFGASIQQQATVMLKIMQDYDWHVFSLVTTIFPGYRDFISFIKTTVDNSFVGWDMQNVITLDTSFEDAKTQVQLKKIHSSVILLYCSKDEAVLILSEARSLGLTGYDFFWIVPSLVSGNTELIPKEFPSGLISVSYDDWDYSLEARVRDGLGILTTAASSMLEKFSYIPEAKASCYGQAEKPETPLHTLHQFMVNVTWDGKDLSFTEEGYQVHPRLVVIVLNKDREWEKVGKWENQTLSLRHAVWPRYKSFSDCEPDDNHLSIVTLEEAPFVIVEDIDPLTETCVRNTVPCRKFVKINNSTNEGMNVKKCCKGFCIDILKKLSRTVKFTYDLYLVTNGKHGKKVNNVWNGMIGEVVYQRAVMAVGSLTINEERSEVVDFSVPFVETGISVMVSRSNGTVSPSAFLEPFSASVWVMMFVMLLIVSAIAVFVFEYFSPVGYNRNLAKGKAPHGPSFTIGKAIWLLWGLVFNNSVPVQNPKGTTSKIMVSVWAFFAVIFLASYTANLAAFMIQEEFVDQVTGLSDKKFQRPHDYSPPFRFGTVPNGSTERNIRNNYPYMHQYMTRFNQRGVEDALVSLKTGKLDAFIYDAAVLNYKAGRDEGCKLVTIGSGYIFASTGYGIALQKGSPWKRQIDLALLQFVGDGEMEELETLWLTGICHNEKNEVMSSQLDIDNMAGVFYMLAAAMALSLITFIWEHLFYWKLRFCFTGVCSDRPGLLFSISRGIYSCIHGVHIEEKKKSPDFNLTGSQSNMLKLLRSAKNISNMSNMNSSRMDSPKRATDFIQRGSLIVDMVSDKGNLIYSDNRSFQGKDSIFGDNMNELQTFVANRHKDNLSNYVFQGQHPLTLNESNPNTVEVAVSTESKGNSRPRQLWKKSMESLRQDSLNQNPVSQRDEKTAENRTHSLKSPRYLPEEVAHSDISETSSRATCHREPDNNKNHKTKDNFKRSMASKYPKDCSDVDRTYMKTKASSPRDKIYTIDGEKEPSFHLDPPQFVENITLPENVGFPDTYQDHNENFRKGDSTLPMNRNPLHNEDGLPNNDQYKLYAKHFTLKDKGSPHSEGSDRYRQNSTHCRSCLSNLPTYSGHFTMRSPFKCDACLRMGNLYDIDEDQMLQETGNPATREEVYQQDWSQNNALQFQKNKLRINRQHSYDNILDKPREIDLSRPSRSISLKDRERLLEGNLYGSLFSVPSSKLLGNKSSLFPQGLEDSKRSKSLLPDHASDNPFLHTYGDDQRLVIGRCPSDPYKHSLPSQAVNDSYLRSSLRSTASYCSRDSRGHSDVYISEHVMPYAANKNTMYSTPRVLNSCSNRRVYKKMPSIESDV
UniProt P45983, 1-384 isoform 3: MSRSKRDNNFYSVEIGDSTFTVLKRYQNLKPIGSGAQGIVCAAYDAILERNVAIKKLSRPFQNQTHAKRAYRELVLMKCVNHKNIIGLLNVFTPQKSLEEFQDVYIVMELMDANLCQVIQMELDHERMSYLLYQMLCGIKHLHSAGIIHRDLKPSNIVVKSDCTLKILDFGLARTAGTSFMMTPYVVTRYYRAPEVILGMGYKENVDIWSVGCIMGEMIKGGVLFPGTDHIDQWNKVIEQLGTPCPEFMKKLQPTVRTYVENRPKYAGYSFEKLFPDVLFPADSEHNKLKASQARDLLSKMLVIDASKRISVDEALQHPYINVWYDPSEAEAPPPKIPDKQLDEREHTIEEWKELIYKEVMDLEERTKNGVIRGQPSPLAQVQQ
UniProt P31421, 19-872 limits assumed: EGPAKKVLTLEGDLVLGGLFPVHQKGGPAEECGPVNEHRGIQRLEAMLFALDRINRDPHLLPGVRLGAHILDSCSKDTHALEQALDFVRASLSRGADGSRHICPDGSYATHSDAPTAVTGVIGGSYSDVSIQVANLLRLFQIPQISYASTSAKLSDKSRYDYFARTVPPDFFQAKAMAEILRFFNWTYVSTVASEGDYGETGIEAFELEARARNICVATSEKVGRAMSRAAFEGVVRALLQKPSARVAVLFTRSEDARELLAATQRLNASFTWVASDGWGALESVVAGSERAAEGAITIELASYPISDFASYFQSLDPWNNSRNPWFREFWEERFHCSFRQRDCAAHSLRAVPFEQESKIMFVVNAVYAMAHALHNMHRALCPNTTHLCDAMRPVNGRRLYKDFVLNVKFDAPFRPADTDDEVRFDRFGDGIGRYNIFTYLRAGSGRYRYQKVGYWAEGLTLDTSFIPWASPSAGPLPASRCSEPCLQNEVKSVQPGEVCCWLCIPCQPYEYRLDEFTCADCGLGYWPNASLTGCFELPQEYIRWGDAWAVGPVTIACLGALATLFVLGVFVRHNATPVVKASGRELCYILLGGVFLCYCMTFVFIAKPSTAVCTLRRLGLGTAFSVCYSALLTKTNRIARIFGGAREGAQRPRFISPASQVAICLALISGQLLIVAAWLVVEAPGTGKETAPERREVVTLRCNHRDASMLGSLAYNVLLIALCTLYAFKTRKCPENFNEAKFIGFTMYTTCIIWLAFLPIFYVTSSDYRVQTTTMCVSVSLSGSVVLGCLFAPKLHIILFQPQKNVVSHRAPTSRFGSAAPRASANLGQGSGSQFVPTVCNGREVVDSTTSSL
UniProt Q9NRX4, whole entry C69A/C71A/C73A: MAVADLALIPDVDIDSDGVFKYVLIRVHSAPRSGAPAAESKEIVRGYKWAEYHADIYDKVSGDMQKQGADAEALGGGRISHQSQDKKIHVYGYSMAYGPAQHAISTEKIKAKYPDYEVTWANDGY
UniProt O14757, whole entry, looked up: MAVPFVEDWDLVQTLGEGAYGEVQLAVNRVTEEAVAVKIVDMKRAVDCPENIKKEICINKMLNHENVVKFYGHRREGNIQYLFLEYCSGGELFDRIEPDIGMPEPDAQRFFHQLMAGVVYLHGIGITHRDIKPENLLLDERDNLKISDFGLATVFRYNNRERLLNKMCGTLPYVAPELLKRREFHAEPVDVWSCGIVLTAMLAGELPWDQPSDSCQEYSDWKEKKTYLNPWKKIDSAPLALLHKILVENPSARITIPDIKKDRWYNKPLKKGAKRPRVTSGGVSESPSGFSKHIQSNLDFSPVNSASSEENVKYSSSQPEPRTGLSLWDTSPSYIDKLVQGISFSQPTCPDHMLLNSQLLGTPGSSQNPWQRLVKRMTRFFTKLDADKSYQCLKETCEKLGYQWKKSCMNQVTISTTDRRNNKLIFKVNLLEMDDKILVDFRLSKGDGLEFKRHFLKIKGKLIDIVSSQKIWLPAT
UniProt P31749, whole entry: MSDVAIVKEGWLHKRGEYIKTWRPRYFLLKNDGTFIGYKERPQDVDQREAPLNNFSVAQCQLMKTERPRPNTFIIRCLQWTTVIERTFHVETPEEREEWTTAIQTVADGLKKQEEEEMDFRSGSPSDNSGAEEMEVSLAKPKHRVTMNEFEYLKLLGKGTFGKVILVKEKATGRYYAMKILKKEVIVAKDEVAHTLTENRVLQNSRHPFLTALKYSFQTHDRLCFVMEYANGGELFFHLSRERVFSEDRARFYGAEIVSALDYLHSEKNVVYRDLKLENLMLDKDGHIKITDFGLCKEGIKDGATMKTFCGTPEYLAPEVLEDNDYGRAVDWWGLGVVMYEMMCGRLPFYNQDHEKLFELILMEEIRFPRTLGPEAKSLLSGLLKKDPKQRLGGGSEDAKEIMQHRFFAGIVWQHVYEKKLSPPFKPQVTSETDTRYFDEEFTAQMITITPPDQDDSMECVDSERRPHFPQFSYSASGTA
UniProt Q8TDS5, whole entry: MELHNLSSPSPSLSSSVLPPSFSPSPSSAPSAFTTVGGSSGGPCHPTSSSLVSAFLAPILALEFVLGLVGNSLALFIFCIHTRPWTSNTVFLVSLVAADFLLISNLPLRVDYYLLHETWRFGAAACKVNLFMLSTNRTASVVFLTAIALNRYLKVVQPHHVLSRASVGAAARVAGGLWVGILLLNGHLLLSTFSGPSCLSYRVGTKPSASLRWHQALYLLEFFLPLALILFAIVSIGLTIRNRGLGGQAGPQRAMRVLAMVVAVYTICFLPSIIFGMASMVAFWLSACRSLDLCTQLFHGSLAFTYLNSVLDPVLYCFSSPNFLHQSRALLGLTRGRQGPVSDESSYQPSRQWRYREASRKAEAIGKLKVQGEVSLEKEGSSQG

COC(=O)[C@@H]1C(C=Nc2cc(C)ccc2O)=Cc2cc3c(cc2[C@H]1c1cc(OC)c(OC)c(OC)c1)OCO3  IC50 (Tubulin alpha/beta heterodimer (Leishmania infantum, UniProt A0A381MCS3+A4HTR0); tubulin polymerization, inhibitor; 37 °C, added: tubulin 1.2 mg/mL): 4.3 ± 0.6 µM
COc1ccc(Nc2nnc(NCC(=O)Nc3c(F)cccc3F)s2)cc1  IC50 (CD28, with CD80 (Homo sapiens, UniProt P10747); CD28–CD80 binding, inhibitor, competitive ELISA; added: biotinylated CD80): 71.6 µM
N#Cc1cnc(Nc2nc3ccccc3o2)nc1-c1cccc(C(F)(F)F)c1  IC50 (Grm5 (Rattus norvegicus, UniProt P31424); calcium mobilization, negative allosteric modulator; added: glutamate EC80): > 30 µM
O=C(Nc1ccc(-c2nc3ccc(NC(=O)C4CCCCC4)cc3s2)cc1)C1CCCCC1  IC50 (Moesin, with CD44 (Homo sapiens, UniProt P26038); MSN-CD44 interaction, inhibitor, TR-FRET; added: CD44): > 20 µM
C[C@H](NC(=O)c1cc(C(=O)O)cc([C@H]2CCN[C@@H]2C(=O)O)c1)C(=O)O  IC50 (Glutamate receptor ionotropic, NMDA 2A, with GluN1 (Grin2a, Rattus norvegicus, UniProt Q00959); ion current, antagonist, two-electrode voltage clamp; Xenopus oocytes; GluN1/GluN2A, added: glycine 100 µM and glutamate 1 µM): 1.64 ± 0.07 µM
CCC(C)N1c2ccccc2C(=O)Nc2cnc(Nc3ccc(C(=O)N4CCC(N5CCN(C)CC5)CC4)cc3OC)nc21 (stereo not shown)  IC50 (MAPK7 (Homo sapiens, UniProt Q13164); kinase activity): > 10 µM
CS(=O)(=O)Oc1ccc(/C=C/c2c[nH]c3ccc(C#N)cc23)cc1  IC50 (Amyloid-beta precursor protein, amyloid-beta peptide (APP, Homo sapiens, UniProt P05067); Aβ42 oligomerisation, ELISA): 4 µM
Cc1ccc(SCC(=O)Nc2ccc3nc(SCC(=O)NCC(C)C)sc3c2)cc1  IC50 (ESR1; reporter gene, antagonist; HEC-1 transfected ERα luciferase reporter): > 50 µM
CN1CCC[C@@H]1C(=O)N[C@@H](Cc1ccccc1)B(O)O  IC50 (Proteasome subunit beta type-2, β2 subunit (Plasmodium falciparum, UniProt Q8I261+Q8I6T3); enzyme activity, inhibitor; added: Ac-WLR-AMC): > 10 µM
S=c1[nH]c2ccccc2s1  IC50 (CA2 (Homo sapiens, UniProt P00918); inhibitor): 68.3 ± 10.7 µM
COC(=O)C1(C)C=C(C(=O)Nc2cccc(C(=O)Nc3ccc(Nc4nccc(-c5cccnc5)n4)c(C)c3)c2)C(=O)C1 (stereo not shown)  IC50 (MAPK8 (Homo sapiens, UniProt P45983); enzyme activity; added: glutathione 10 mM): 0.037 ± 0.004 µM
N#Cc1cccc(OC(=O)N2CC(OC(c3ccccc3)c3ccccc3)C2)c1  IC50 (ABHD6 (Homo sapiens, UniProt Q9BV23); inhibitor, fluorescence): 0.198 ± 0.0028 µM
CC(C)NC(=O)CSc1nc2ccc(NC(=O)CSc3cccc(Cl)c3)cc2s1  IC50 (ESR1; reporter gene, antagonist; HEC-1 cells transfected with ERα; added: estradiol 100 nM): 3.6 µM
CCN(Cc1cccnc1)c1ccc2c(c1)c(=O)c(C(N)=O)cn2-c1ccc(F)cc1  IC50 (Grm2 (Rattus norvegicus, UniProt P31421); calcium mobilization, negative allosteric modulator): 0.159 µM
O=Cc1c(O)c2c(c3c1CC(O)OC3=O)CCC2 (stereo not shown)  IC50 (14 kDa phosphohistidine phosphatase (Homo sapiens, UniProt Q9NRX4, C69A/C71A/C73A); C69A/C71A/C73A mutant): 3 ± 0.2 µM
CN1CC[C@H](c2c(O)cc(O)c3c(=O)cc(-c4ccc(C(F)(F)F)cc4)oc23)[C@H](O)C1  IC50 (Cyclin-dependent kinase 9, with cyclin T1 (CDK9, Homo sapiens, UniProt P50750); inhibitor; with cyclin T1, GST-CTD substrate): 0.0188 µM
O=C(O)c1ccc(Cl)cc1Nc1ccc2c(c1)Nc1ccccc1NC2=O  IC50 (CHEK1 (Homo sapiens, UniProt O14757); enzyme activity, inhibitor; added: CDC25C substrate): 0.263 µM
Nc1nccc(-c2ccc(C3(c4ccc(Cl)cc4)CCNCC3)cc2)n1  IC50 (AKT1 (Homo sapiens, UniProt P31749); kinase activity, inhibitor, radiometric HotSpot; added: ATP 10 µM): 0.021 µM
CCCCC[C@H](O)c1c(C(=O)C[C@@H](C)CC(=O)O)c2cc(Cl)ccc2n1C  IC50 (OXER1 (Homo sapiens, UniProt Q8TDS5); calcium mobilization, antagonist; human neutrophils; added: 5-oxo-ETE 10 nM): > 10 µM

Excerpt of the above:
COC(=O)[C@@H]1C(C=Nc2cc(C)ccc2O)=Cc2cc3c(cc2[C@H]1c1cc(OC)c(OC)c(OC)c1)OCO3  IC50 (Tubulin alpha/beta heterodimer (Leishmania infantum, UniProt A0A381MCS3+A4HTR0); tubulin polymerization, inhibitor; 37 °C, added: tubulin 1.2 mg/mL): 4.3 ± 0.6 µM
COc1ccc(Nc2nnc(NCC(=O)Nc3c(F)cccc3F)s2)cc1  IC50 (CD28, with CD80 (Homo sapiens, UniProt P10747); CD28–CD80 binding, inhibitor, competitive ELISA; added: biotinylated CD80): 71.6 µM
